Results gathered from unrelated publications.
Numbers after ± are the reported error. Values after ≈ are worked out from the molar mass of the structure shown.
SCRIB PDZ3 domain: Protein scribble homolog, PDZ3 domain (SCRIB, Homo sapiens, UniProt Q14160)
Sequence of UniProt Q14160 (whole entry, looked up): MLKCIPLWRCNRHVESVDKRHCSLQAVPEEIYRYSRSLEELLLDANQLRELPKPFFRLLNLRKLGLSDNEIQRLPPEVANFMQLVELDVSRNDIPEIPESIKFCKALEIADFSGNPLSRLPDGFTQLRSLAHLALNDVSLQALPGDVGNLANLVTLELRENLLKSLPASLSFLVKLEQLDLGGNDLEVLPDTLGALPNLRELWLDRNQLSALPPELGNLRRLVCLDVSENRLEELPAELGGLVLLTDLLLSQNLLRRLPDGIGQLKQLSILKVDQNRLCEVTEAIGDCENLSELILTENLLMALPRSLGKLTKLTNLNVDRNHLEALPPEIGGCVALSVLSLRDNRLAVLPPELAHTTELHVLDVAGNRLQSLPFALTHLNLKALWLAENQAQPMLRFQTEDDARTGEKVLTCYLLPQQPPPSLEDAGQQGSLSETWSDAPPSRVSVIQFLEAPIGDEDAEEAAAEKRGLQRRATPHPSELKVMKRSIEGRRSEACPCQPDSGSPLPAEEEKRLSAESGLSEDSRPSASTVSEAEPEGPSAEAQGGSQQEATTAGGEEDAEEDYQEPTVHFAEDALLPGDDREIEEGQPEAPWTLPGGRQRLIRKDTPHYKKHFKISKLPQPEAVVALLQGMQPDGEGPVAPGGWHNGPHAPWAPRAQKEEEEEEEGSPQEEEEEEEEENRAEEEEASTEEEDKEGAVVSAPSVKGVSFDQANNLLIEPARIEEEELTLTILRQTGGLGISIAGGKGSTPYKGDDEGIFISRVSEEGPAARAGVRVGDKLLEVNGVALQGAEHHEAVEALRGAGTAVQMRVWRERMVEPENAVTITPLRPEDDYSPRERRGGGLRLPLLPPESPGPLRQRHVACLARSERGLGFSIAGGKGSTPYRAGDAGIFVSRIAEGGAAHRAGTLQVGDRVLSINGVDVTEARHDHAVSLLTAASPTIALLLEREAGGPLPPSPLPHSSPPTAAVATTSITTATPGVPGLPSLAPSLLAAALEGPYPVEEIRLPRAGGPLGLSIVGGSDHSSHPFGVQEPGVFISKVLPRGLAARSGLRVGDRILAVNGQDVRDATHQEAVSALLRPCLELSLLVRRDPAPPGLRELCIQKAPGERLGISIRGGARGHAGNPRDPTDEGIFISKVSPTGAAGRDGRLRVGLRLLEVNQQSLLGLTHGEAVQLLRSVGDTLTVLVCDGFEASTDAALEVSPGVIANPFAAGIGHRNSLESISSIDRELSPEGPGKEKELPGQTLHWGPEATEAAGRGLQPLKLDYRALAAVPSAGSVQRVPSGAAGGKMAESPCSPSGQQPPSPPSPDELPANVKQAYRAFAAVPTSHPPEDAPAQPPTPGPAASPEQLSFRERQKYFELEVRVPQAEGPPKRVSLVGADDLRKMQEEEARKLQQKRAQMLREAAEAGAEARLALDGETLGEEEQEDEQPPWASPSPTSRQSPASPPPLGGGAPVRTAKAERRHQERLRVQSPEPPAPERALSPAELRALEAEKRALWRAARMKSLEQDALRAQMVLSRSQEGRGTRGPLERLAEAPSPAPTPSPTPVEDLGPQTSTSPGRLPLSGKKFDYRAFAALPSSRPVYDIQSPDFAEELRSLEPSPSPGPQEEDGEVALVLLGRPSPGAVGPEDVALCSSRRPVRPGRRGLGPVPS

`COc1cccc(-c2n[nH]c(SCc3ccccn3)n2)c1OC` — result for “revertant colonies per plate”: 31 (Escherichia coli; Ames test, plate incorporation; WP2 uvrA; 0.50 mg/plate, without S9).
`O=[N+]([O-])c1ccc(N2CCN(CCC(O)c3ccc(F)cc3)CC2)c(C(F)(F)F)c1` (stereo not drawn) has an induction factor of 0.9 (Salmonella typhimurium; genotoxicity, SOS/umu test; TA1535/pSK1002; 0.031 mg/mL, 4 h, with S9, lower range).
`C=CCNCCc1c[nH]c2cccc(O)c12.C=CCNCCc1c[nH]c2cccc(O)c12.O=C(O)/C=C/C(=O)O` has a distance travelled of 2540 ± 241 cm (C57BL/6J mice; subcutaneous, 10 mg/kg, 30 min).
With `Cc1cc(C(=O)NC(C)(C)COc2cccc3c2C(N)=NS(=O)(=O)N3)cc(C)n1` the revertant ratio was 1.3 (Salmonella typhimurium; Ames test, initial; TA98; 150 µg/plate; reference: solvent control).
`CNC(=O)c1c(N(C)N=O)ncn1C` — result for “revertant colonies per plate”: 31.7 ± 4 (Salmonella typhimurium; plate incorporation; TA1535, water; 2500 µg/plate, without S9).
The induction factor of `Fc1ccc(C2=CCNCC2)cc1` is reported as 0.9 (Salmonella typhimurium; genotoxicity, SOS/umu test; TA1535/pSK1002; 0.008 mg/mL, 4 h, with S9, full range).
`CC[C@H](C)[C@H](NC(=O)[C@H](CCCCN)NC(=O)[C@@H](NC(=O)[C@H](Cc1ccc(O)cc1)NC(=O)[C@H](CCCCN)NC(=O)[C@H](CCCCN)NC(=O)CNC(=O)[C@H](CCCCN)NC(=O)[C@@H](NC(=O)[C@H](C)NC(=O)[C@H](CC(C)C)NC(=O)[C@H](Cc1c[nH]c2ccccc12)NC(=O)CNC(=O)[C@@H](NC(=O)[C@H](Cc1ccccc1)NC(=O)[C@H](CCCCN)NC(=O)[C@H](CC(C)C)NC(=O)[C@H](Cc1ccccc1)NC(=O)[C@H](C)NC(=O)CNC(=O)[C@@H](N)CCSC)C(C)C)[C@@H](C)O)C(C)C)C(=O)N[C@@H](C)C(=O)N[C@@H](Cc1c[nH]c2ccccc12)C(=O)N[C@@H](CC(=O)O)C(=O)N[C@@H](Cc1c[nH]cn1)C(=O)N[C@@H](CCCCN)C(=O)NCC(=O)N[C@H](C(=O)N[C@H](C(=O)N[C@@H](CCSC)C(=O)N[C@@H](CCCCN)C(=O)N[C@@H](Cc1c[nH]c2ccccc12)C(=O)N[C@@H](CC(C)C)C(=O)N[C@@H](CC(N)=O)C(=O)N[C@@H](C)C(=O)NCC(=O)N[C@@H](CCC(N)=O)C(=O)N[C@H](C(=O)N[C@@H](Cc1ccccc1)C(=O)N[C@H](C(=O)N[C@@H](Cc1c[nH]c2ccccc12)C(=O)N[C@H](C(=O)N[C@@H](Cc1ccc(O)cc1)C(=O)N[C@@H](CCC(=O)O)C(=O)N[C@@H](CCC(N)=O)C(=O)N[C@H](C(=O)N[C@@H](CCCCN)C(=O)N[C@@H](CCCCN)C(=O)N[C@@H](CC(C)C)C(=O)N[C@@H](Cc1c[nH]c2ccccc12)C(=O)N[C@H](C(=O)O)[C@@H](C)O)[C@@H](C)CC)C(C)C)[C@@H](C)O)[C@@H](C)O)[C@@H](C)CC)[C@@H](C)O` — result for “MIC after heating”: 24 µg/mL (≈ 3.97 µM) (Pediococcus damnosus; CECT 4797; 30 min, 100 °C).
`CC(C)C[C@H](NC(=O)[C@H](CO)NC(=O)[C@H](CO)NC(=O)[C@H](CCC(=O)O)NC(=O)[C@H](Cc1ccc(O)cc1)NC(=O)[C@H](CO)NC(=O)[C@@H](NC(=O)[C@H](C)NC(=O)[C@@H](NC(=O)[C@@H](N)CCCCN)C(C)C)[C@@H](C)O)C(=O)O` gave a Kd of 3200 nM (SCRIB PDZ3 domain; binding, fluorescence polarization; solution; Scribble PDZ3 domain).
The survival rate of `[Cl-].[Cl-].[Pt+2].[Ru+2].c1ccc(-c2nc3cc4ccccc4cc3nc2-c2ccccn2)nc1.c1cnc2c(c1)ccc1cccnc12.c1cnc2c(c1)ccc1cccnc12` is reported as 76.7 ± 3.7% (Danio rerio; embryos; 75 µM, 48 h).
`CC(C)C(=O)O[C@H]1[C@H](C)OC(=O)[C@@H]1Cc1ccccc1` has an LC50 of > 1.9 µg/mL (Oncorhynchus mykiss; mortality, static-renewal water exposure; 96 h).
`CC(=O)N1CCC(C(=O)N2CCN3C(=O)c4cc(-c5ccccc5)ccc4NC(=O)C3C2)CC1` (stereo not drawn) — result for “revertants per plate”: 23 (Escherichia coli; WP2 uvrA; 50 µg/plate, without S9).
`[Cl-].[Cl-].[Pt+2].[Ru+2].c1ccc(-c2nccnc2-c2ccccn2)nc1.c1cnc2c(c1)ccc1cccnc12.c1cnc2c(c1)ccc1cccnc12` gave a survival rate of 86.7 ± 1.9% (Danio rerio; embryos; 30 µM, 24 h).
With `COc1ccnc(C(=O)N[C@H]2COC(=O)[C@H](Cc3ccccc3)[C@@H](O)[C@H](C)OC2=O)c1O` the LC50 was > 2 µg/mL (Oncorhynchus mykiss; mortality, static-renewal water exposure; 96 h).
With `[Cl-].[Cl-].[Pt+2].[Ru+2].c1ccc(-c2nc3ccccc3nc2-c2ccccn2)nc1.c1cnc2c(c1)ccc1cccnc12.c1cnc2c(c1)ccc1cccnc12` the hatching rate was 3.33 ± 2.7% (Danio rerio; embryos; 90 µM, 96 h).
`O=[N+]([O-])c1ccc(N2CCC(NCCC(O)c3ccc(F)c4ccccc34)CC2)c(C(F)(F)F)c1` (stereo not drawn) gave a survival of 74.8% (Salmonella typhimurium; SOS/umu test; TA1535/pSK1002; 0.016 mg/mL, 4 h, with S9, full range).
`CC(C)C[C@H](NC(=O)[C@@H]1CCCN1C(=O)[C@@H](NC(=O)[C@H](CCC(=O)O)NC(=O)[C@H](CCCCN)NC(=O)[C@H](CO)NC(=O)[C@@H](NC(=O)[C@H](CCCNC(=N)N)NC(=O)[C@H](C)NC(=O)CN)C(C)C)[C@@H](C)O)C(=O)O` has a Kd of 1700 nM (SCRIB PDZ3 domain; binding, fluorescence polarization; solution; Scribble PDZ3 domain).
For `COc1ccc(C[C@H](NC(=O)[C@H](C)NC(=O)CN2CCOCC2)C(=O)N[C@@H](Cc2ccccc2)C(=O)C2(C)CO2)cc1` (stereo in doubt), the selectivity ratio was > 19700 (Plasmodium falciparum; Dd2, chloroquine-resistant; reference: HEK-293T CC50 over IC50).
`CCCCNCCc1c[nH]c2cccc(O)c12.O=C(O)/C=C/C(=O)O` gave a distance travelled of 2510 ± 249 cm (C57BL/6J mice; subcutaneous, 0.3 mg/kg, 30 min).

Excerpt of the above:
`O=[N+]([O-])c1ccc(N2CCN(CCC(O)c3ccc(F)cc3)CC2)c(C(F)(F)F)c1` (stereo not drawn) has an induction factor of 0.9 (Salmonella typhimurium; genotoxicity, SOS/umu test; TA1535/pSK1002; 0.031 mg/mL, 4 h, with S9, lower range).
`CC(=O)N1CCC(C(=O)N2CCN3C(=O)c4cc(-c5ccccc5)ccc4NC(=O)C3C2)CC1` (stereo not drawn) — result for “revertants per plate”: 23 (Escherichia coli; WP2 uvrA; 50 µg/plate, without S9).
